Assay results collected from several papers.
Each line is one published result; not all experiments were run side by side. Numbers after ± are the reported error.
GRM4: Metabotropic glutamate receptor 4 (GRM4, Homo sapiens, UniProt Q14833)
Lysophospholipase-like protein 1: Lysophospholipase-like protein 1 (Mus musculus, UniProt Q3UFF7)
FPR1: fMet-Leu-Phe receptor (FPR1, Homo sapiens, UniProt P21462)
GLP1R: Glucagon-like peptide 1 receptor (GLP1R, Homo sapiens, UniProt P43220)
Mc1r: Melanocyte-stimulating hormone receptor (Mc1r, Mus musculus, UniProt Q01727)
KCNT1: Potassium channel subfamily T member 1 (KCNT1, Homo sapiens, UniProt Q5JUK3)

The chains behind the UniProt entries cited, without tags or fusion partners. Residues count along the entry.
UniProt Q14833, 33-912 limits assumed: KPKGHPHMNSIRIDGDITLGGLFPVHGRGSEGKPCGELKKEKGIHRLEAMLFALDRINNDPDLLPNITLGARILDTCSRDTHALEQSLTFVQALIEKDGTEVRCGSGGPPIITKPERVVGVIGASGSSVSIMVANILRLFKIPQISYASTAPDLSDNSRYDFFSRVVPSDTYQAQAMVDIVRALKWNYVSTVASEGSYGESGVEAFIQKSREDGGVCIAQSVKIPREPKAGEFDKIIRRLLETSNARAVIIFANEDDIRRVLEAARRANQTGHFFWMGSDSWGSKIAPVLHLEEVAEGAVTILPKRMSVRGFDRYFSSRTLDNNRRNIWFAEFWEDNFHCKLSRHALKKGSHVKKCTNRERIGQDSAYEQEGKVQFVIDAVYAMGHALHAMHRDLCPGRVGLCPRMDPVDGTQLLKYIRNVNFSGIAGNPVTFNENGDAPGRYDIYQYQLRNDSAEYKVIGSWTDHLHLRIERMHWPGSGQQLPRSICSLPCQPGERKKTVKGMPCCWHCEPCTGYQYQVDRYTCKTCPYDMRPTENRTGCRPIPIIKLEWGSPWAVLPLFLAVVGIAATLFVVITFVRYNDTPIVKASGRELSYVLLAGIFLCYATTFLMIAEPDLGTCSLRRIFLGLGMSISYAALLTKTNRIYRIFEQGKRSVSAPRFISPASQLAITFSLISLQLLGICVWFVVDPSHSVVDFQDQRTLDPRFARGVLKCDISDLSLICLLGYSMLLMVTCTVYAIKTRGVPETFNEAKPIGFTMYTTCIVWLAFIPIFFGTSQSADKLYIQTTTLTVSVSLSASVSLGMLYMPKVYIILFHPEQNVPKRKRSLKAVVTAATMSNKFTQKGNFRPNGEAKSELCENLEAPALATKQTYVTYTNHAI
UniProt Q3UFF7, whole entry: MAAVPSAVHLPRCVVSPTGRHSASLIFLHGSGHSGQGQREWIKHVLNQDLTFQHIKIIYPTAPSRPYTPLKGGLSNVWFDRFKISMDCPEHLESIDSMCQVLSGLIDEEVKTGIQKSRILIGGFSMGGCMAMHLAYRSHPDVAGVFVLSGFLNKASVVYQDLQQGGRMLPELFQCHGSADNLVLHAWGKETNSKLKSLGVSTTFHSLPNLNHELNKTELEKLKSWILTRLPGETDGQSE
UniProt P43220, whole entry, looked up: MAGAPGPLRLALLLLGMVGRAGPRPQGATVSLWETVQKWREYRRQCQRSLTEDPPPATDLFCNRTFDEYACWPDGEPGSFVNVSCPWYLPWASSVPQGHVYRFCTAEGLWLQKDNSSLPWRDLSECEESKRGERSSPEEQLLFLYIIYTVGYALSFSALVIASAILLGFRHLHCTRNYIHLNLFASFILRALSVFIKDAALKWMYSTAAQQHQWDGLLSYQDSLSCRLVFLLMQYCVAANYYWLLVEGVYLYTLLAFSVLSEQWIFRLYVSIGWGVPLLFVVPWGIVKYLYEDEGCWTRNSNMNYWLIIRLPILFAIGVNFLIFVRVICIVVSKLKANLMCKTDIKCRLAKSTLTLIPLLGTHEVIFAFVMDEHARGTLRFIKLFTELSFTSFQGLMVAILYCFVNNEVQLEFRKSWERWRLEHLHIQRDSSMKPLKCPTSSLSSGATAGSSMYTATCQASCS
UniProt P43220, 24-463 limits assumed: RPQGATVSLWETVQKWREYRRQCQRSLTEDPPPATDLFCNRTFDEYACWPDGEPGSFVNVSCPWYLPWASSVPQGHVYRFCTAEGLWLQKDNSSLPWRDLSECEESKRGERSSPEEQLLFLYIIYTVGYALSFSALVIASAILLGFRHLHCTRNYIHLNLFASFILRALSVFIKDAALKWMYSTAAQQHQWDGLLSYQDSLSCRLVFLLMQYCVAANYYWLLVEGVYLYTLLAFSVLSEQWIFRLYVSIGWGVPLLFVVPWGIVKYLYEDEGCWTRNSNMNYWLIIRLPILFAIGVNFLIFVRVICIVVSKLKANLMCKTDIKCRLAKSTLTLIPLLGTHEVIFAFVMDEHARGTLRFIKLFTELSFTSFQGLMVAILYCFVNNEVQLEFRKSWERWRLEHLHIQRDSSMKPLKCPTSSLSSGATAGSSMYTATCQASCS
UniProt Q01727, whole entry: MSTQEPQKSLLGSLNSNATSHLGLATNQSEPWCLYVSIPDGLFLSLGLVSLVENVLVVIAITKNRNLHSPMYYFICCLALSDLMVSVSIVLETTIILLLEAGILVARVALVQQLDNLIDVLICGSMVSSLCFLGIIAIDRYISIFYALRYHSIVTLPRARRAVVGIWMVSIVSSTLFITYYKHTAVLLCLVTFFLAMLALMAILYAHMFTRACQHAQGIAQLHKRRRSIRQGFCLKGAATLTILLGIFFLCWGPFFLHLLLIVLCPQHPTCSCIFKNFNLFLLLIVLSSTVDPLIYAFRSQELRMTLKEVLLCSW
UniProt Q5JUK3, whole entry: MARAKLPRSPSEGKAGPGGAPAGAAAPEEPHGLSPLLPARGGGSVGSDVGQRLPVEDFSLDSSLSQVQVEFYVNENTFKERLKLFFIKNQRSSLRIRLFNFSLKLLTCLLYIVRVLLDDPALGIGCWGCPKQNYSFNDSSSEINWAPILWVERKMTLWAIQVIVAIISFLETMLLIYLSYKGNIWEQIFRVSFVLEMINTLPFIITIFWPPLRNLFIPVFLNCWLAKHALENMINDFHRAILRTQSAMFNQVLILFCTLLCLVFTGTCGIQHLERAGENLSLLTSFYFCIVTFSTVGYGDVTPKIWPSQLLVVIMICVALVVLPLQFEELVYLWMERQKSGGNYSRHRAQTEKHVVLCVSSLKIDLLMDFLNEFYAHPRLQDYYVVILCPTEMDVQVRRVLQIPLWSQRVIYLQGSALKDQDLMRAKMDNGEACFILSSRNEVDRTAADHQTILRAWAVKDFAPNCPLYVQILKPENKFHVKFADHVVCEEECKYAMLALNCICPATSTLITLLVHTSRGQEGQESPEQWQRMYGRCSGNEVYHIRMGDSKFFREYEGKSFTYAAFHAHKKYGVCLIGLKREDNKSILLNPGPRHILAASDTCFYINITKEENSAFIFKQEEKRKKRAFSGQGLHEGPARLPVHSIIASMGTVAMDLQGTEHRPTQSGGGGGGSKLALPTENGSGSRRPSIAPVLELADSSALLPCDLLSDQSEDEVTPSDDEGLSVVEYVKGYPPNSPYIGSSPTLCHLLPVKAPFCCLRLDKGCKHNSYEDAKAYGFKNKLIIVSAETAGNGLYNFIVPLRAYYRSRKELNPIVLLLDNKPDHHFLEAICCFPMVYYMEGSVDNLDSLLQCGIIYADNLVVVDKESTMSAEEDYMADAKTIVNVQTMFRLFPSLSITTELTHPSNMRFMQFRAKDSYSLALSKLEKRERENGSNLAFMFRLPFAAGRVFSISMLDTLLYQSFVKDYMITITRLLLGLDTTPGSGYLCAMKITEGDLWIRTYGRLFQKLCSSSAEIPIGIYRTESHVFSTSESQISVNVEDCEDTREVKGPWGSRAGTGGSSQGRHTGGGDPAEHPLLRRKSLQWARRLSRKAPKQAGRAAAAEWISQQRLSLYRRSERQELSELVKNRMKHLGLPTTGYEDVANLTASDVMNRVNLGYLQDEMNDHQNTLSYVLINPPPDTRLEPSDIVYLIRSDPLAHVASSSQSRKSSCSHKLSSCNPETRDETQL
UniProt P13569, whole entry: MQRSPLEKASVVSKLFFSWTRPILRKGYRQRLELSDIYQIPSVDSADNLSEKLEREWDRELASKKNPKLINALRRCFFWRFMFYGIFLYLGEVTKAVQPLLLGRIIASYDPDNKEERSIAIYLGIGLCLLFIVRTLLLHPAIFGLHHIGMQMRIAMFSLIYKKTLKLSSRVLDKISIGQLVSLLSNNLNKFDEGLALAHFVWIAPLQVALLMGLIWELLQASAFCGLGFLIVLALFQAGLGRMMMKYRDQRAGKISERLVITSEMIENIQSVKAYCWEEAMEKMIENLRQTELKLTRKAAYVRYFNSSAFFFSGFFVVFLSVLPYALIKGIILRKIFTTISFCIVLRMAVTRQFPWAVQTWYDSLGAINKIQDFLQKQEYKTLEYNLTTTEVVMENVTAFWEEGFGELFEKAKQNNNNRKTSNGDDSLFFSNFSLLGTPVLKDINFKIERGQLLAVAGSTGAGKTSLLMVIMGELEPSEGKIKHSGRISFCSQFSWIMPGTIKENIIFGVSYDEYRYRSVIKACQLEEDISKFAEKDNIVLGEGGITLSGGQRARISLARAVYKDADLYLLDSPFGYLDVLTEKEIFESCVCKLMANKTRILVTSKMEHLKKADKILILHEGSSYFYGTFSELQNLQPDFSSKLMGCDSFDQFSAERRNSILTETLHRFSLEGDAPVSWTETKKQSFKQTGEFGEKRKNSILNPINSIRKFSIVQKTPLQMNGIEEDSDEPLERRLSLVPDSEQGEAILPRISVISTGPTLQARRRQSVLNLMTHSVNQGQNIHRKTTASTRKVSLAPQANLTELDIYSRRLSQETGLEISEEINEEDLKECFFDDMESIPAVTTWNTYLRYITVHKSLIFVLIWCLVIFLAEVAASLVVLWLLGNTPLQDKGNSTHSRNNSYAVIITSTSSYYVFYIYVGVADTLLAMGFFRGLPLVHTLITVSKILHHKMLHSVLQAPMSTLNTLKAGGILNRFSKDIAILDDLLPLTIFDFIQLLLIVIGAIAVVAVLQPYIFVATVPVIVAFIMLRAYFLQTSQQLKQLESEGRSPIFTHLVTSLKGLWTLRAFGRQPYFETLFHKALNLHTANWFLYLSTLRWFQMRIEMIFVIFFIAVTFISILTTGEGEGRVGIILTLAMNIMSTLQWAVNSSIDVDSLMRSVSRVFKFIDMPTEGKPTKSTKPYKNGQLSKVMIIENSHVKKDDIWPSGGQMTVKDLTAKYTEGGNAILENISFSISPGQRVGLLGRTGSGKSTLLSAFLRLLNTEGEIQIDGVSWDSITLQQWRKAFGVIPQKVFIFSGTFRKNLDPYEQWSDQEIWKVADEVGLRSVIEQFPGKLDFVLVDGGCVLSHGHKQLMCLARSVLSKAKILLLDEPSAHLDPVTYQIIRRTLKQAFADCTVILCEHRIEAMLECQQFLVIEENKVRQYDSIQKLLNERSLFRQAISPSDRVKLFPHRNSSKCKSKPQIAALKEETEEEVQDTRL
UniProt Q923Y9, whole entry N287Y: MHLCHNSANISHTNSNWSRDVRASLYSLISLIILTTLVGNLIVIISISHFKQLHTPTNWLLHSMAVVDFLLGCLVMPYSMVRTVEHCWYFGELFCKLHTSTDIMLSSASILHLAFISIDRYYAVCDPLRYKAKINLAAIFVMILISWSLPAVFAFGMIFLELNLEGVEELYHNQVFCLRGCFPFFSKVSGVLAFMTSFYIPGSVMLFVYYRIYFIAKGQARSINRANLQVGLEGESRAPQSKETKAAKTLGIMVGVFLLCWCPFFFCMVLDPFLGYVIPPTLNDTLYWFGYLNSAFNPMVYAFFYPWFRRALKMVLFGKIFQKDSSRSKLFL
UniProt P25090, whole entry: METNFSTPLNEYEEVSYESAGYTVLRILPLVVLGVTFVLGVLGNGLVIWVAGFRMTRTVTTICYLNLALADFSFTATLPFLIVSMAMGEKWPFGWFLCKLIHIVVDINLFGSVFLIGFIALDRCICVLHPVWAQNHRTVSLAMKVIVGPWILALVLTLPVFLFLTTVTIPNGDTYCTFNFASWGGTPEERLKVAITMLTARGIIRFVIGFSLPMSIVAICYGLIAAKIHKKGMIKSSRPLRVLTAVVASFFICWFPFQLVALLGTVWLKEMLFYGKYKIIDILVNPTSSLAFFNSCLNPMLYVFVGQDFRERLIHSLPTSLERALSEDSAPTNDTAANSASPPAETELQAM
UniProt Q99685, whole entry: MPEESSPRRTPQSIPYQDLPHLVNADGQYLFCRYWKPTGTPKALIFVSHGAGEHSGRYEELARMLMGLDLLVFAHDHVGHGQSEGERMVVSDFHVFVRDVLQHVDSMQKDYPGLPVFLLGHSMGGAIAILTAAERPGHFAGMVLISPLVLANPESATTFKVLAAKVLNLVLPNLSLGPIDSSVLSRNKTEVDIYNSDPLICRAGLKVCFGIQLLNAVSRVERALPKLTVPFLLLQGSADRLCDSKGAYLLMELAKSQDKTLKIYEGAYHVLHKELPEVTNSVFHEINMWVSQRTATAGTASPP
UniProt Q02750, whole entry: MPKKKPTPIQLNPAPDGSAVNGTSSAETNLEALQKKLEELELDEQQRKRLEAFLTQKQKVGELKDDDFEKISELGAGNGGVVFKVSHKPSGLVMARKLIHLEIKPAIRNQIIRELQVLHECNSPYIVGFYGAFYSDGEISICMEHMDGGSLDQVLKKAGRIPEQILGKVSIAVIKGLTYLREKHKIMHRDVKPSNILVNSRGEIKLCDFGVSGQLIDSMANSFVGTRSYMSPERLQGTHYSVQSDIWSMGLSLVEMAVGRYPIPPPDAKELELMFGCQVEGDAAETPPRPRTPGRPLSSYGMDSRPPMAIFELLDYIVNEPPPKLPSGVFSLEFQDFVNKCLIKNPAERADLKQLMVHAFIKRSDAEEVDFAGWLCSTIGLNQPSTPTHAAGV

CCCn1c(=O)c(-c2cccc(NC(C)=O)c2)nc2ccccc21 — EC50 (Cystic fibrosis transmembrane conductance regulator (CFTR, Homo sapiens, UniProt P13569); iodide influx, activator, YFP halide sensor; FRT; approximate, together with: forskolin 125 nM): > 25 µM
O=C(N[C@H]1CCCC[C@@H]1O)[C@@H]1CN(Cc2ccc(-n3cccn3)cc2)c2ccccc2O1 — EC50 (Muscarinic acetylcholine receptor M1 (CHRM1, Homo sapiens, UniProt P11229); calcium mobilization, agonist; high-expression cell line): > 10 µM
COc1ccc(NC(=O)CN2CCCN(S(=O)(=O)c3ccc(C)cc3)CC2)c(OC)c1 — EC50 (GRM4; calcium mobilization, positive allosteric modulator; CHO cells with Gqi5; together with: glutamate EC20): 3.3 ± 0.2 µM
Nc1nc(NCCc2ccc(Cl)cc2)nn1S(=O)(=O)c1ccc2ncsc2c1 — EC50 (Lysophospholipase-like protein 1; enzyme activity, activator, gel-based ABPP, FP-rhodamine; purified protein): 2.1 µM
COc1cccc(Cc2cc(C)nn(C(C(=O)Nc3ccc(Br)cc3)C(C)C)c2=O)c1 (racemic) — EC50 (FPR1; calcium mobilization, agonist; HL-60 transfected with FPR1): 2 µM
O=C(NN=Cc1ccccc1)c1ccc(Cl)cc1 — EC50 (Estrogen-related receptor gamma (ESRRG, Homo sapiens, UniProt P62508); reporter gene, agonist, ERRE luciferase reporter; HEK293 transfected): 0.79 µM
CC(=O)c1cccc(S(=O)(=O)n2nc(CCCc3ccc(Cl)cc3)nc2N)c1 — EC50 (Lysophospholipase-like protein 1; enzyme activity, activator, gel-based ABPP, FP-rhodamine; purified protein): > 20 µM
CN(Cc1ccccc1)Cc1cn(CC(C)(C)c2c[nH]c3ccccc23)nn1 — EC50 (GLP1R; cAMP accumulation, positive allosteric modulator, HTRF; CHO-K1 expressing GLP1R; purified compound, together with: GLP-1(9-36) at EC20): 1.32 ± 0.033 µM
CC(C)Oc1ccccc1-n1c(CN2CCN(C(=O)COc3ccc(Cl)cc3)CC2)nc2c(Cl)cccc2c1=O — EC50 (Slc7a11 (Rattus norvegicus, UniProt A0A8I6AB70); cystine uptake, inhibitor, measured: [14C]cystine; rat primary microglia; 15 min, together with: LPS): 1.75 ± 0.39 µM
Cc1nc(-c2ccc(OCC(C)C)c(C#N)c2)sc1C(=O)N(C)C — EC50 (Grm2/Grm4 (Rattus norvegicus, UniProt P31421+P31423); thallium flux, positive allosteric modulator; HEK293 GIRK; together with: glutamate EC20): 0.76 µM
NCC(c1ccc(O)cc1)c1ccc(Oc2ccccc2)cc1 (stereo not drawn) — EC50 (Trace amine-associated receptor 1 (Rattus norvegicus, UniProt Q923Y9, N287Y); cAMP, agonist; rat receptor mutant): ~1 µM
CCS(=O)(=O)c1nc(-c2ccc(F)cc2)cc(C(F)F)n1 — EC50 (GLP1R; cAMP accumulation, agonist; HEK293T overexpressing target; no peptide ligand): 42 ± 5.8 µM
NCC(c1ccccc1)c1cccc(Oc2ccccc2)c1 (stereo not drawn) — EC50 (Trace amine-associated receptor 1 (Taar1, Mus musculus, UniProt Q923Y8, T268M); cAMP, agonist; mouse receptor mutant): > 10 µM
NCCCCNC(=O)[C@H](Cc1ccccc1)NC(=O)N1CCc2ccccc2C1 — EC50 (Mc1r; reporter gene, agonist, β-galactosidase reporter; HEK293 stably expressing Mc1r): 3.8 ± 0.3 µM
O=S(=O)(c1cccc(C(F)(F)F)c1)N1CCC(Cn2cnc3cc(C(F)(F)F)ccc32)CC1 — EC50 (KCNT1; thallium flux, activator; HEK293 expressing KCNT1): > 10 µM
O=C(Nc1ccc([N+](=O)[O-])cc1)N[C@@H](Cc1c[nH]c2ccccc12)C(=O)NCC1(c2ccccc2)CCCCC1 — EC50 (N-formyl peptide receptor 2 (FPR2, Homo sapiens, UniProt P25090); Ca2+ mobilization, agonist; HL-60 transfected with FPR2): 0.7 ± 0.22 µM
Cc1[nH]c2cc(Cl)cc(Cl)c2c1CCn1cc(CNC(N)=O)nn1 — EC50 (GLP1R; cAMP accumulation, positive allosteric modulator, HTRF; CHO-K1 expressing GLP1R; purified compound, together with: GLP-1(9-36) at EC20): 0.822 ± 0.356 µM
COc1ccc(S(=O)(=O)N2CCCN(CC(=O)Nc3ccc(OC)cc3OC)CC2)cc1 — EC50 (GRM4; calcium mobilization, positive allosteric modulator; CHO cells with Gqi5; together with: glutamate EC20): > 10 µM
Nc1nc(SCc2ccc(Cl)cc2)nn1S(=O)(=O)c1ccc(C(F)(F)F)nc1 — EC50 (Lysophospholipase-like protein 1; enzyme activity, activator, gel-based ABPP, FP-rhodamine; purified protein): 2.4 µM
O=C(Cn1nnc(-c2cccnc2)c1-c1ccccc1)Nc1ccc(-c2ccccc2)cn1 — EC50 (Protein-serine O-palmitoleoyltransferase porcupine (Mus musculus, UniProt Q9JJJ7); Wnt signalling reporter, inhibitor; L-Wnt-STF): 0.0006 µM
C[N+]1=C(C=CC=CC=C2N(CCCCCC(=O)NCc3cn(CCOc4ccc(C(c5ccc(Cl)cc5)N5CCN(C(=O)OC(C(F)(F)F)C(F)(F)F)CC5)cc4)nn3)c3ccccc3C2(C)C)C(C)(C)c2ccccc21 (stereo not drawn) — EC50 (Monoglyceride lipase (MGLL, Homo sapiens, UniProt Q99685); target engagement, gel-based ABPP; U-87 MG; 1 h, 37 °C): ~0.01 µM
Cc1c(=O)n(C)c(Nc2ccc(I)cc2F)c2c(=O)n(C3CC3)c(=O)n(-c3cccc(NC(=O)CCOCCOCCNC(=O)CCC4=[N+]5C(=Cc6ccc(-c7ccc[nH]7)n6[B-]5(F)F)C=C4)c3)c12 — EC50 (Dual specificity mitogen-activated protein kinase kinase 1, with CRAF (MAP2K1, Homo sapiens, UniProt Q02750); binding, NanoBRET; HEK-293T; MEK1-NanoLuc with CRAF): 0.193 ± 0.028 µM
CSc1cc(NC(=O)c2ccccn2)ccc1Cl — EC50 (Metabotropic glutamate receptor 8 (GRM8, Homo sapiens, UniProt O00222); agonist): 14 µM
COc1ccc(NC(=O)CN2CCCN(S(=O)(=O)Cc3ccc(Cl)cc3Cl)CC2)c(OC)c1 — EC50 (GRM4; calcium mobilization, positive allosteric modulator; CHO cells with Gqi5; together with: glutamate EC20): 2.8 ± 0.01 µM
CCc1ccc(NC(=O)CSc2nc3ccc(OC)cc3[nH]2)cc1 — EC50 (FPR1; calcium mobilization, agonist; HL-60 transfected with FPR1): 5.5 µM
CC(=O)NCc1cn(CCc2c(C)[nH]c3cc(Cl)cc(Cl)c23)nn1 — EC50 (GLP1R; cAMP accumulation, positive allosteric modulator, HTRF; CHO-K1 expressing GLP1R; purified compound, together with: GLP-1(9-36) at EC20): 0.789 ± 0.102 µM
Nc1nc(NCc2ccc(Cl)cc2)nn1S(=O)(=O)c1ccc2ncsc2c1 — EC50 (Lysophospholipase-like protein 1; enzyme activity, activator, gel-based ABPP, FP-rhodamine; purified protein): > 20 µM
CC1(C#Cc2cc(-c3nn(-c4nc(C(=O)O)cs4)c(CC4CC4)c3Cc3ccc(S(N)(=O)=O)c(F)c3)ccc2F)COC1 — EC50 (L-lactate dehydrogenase A chain (LDHA, Homo sapiens, UniProt P00338); thermal stabilisation, CETSA; HEK293; 3.5 min, 71 °C): 0.14 µM
O=C(Nc1cccc(F)c1)C12CC1/C(=N\O)c1ccccc1O2 (stereo not drawn) — EC50 (GRM4; calcium mobilization, positive allosteric modulator; CHO hmGluR4/Gqi5; together with: glutamate EC20): > 5 µM
Cc1[nH]c2cc(Cl)cc(Cl)c2c1CCn1cc(CN2CCS(=O)(=O)CC2)nn1 — EC50 (GLP1R; cAMP accumulation, positive allosteric modulator, HTRF; CHO-K1 expressing GLP1R; purified compound, together with: GLP-1(9-36) at EC20): 0.663 ± 0.171 µM
NCCCCNC(=O)[C@H](Cc1ccc(I)cc1)NC(=O)N1CCc2ccccc2C1 — EC50 (Mc1r; reporter gene, agonist, β-galactosidase reporter; HEK293 stably expressing Mc1r): 25 ± 2.8 µM
Oc1c(Cl)cccc1CNc1nc2ccccc2n1CC1CC1 — EC50 (Retinaldehyde dehydrogenase 3 (ALDH1A3, Homo sapiens, UniProt P47895); enzyme activity, inhibitor, NADH absorbance 340 nm; pH 7.5, 25 °C, 200 µM NAD+, together with: 100 µM propionaldehyde): 0.25 ± 0.01 µM
CC(C)(Cn1cc(-c2ccc(N)nc2)nn1)c1c[nH]c2ccccc12 — EC50 (GLP1R; cAMP accumulation, positive allosteric modulator, HTRF; CHO-K1 expressing GLP1R; purified compound, together with: GLP-1(9-36) at EC20): 0.496 ± 0.149 µM
NCC(c1ccccc1)c1ccc(O)cc1 (stereo not drawn) — EC50 (Trace amine-associated receptor 1 (Taar1, Mus musculus, UniProt Q923Y8); cAMP production, agonist): ≥ 10 µM
COc1ccc(NC(=O)CN2CCCN(S(=O)(=O)c3ccc(C(C)=O)cc3)CC2)c(OC)c1 — EC50 (GRM4; calcium mobilization, positive allosteric modulator; CHO cells with Gqi5; together with: glutamate EC20): > 10 µM
COc1ccc2c(c1)ncn2CC1CCN(S(=O)(=O)c2cccc(C(F)(F)F)c2)CC1 — EC50 (KCNT1; thallium flux, activator; HEK293 expressing KCNT1): 2.1 µM

Excerpt of the above:
C[N+]1=C(C=CC=CC=C2N(CCCCCC(=O)NCc3cn(CCOc4ccc(C(c5ccc(Cl)cc5)N5CCN(C(=O)OC(C(F)(F)F)C(F)(F)F)CC5)cc4)nn3)c3ccccc3C2(C)C)C(C)(C)c2ccccc21 (stereo not drawn) — EC50 (Monoglyceride lipase (MGLL, Homo sapiens, UniProt Q99685); target engagement, gel-based ABPP; U-87 MG; 1 h, 37 °C): ~0.01 µM
Oc1c(Cl)cccc1CNc1nc2ccccc2n1CC1CC1 — EC50 (Retinaldehyde dehydrogenase 3 (ALDH1A3, Homo sapiens, UniProt P47895); enzyme activity, inhibitor, NADH absorbance 340 nm; pH 7.5, 25 °C, 200 µM NAD+, together with: 100 µM propionaldehyde): 0.25 ± 0.01 µM
CC(=O)c1cccc(S(=O)(=O)n2nc(CCCc3ccc(Cl)cc3)nc2N)c1 — EC50 (Lysophospholipase-like protein 1; enzyme activity, activator, gel-based ABPP, FP-rhodamine; purified protein): > 20 µM
COc1ccc2c(c1)ncn2CC1CCN(S(=O)(=O)c2cccc(C(F)(F)F)c2)CC1 — EC50 (KCNT1; thallium flux, activator; HEK293 expressing KCNT1): 2.1 µM
CC(C)Oc1ccccc1-n1c(CN2CCN(C(=O)COc3ccc(Cl)cc3)CC2)nc2c(Cl)cccc2c1=O — EC50 (Slc7a11 (Rattus norvegicus, UniProt A0A8I6AB70); cystine uptake, inhibitor, measured: [14C]cystine; rat primary microglia; 15 min, together with: LPS): 1.75 ± 0.39 µM
